# Experimental data collected from several papers.
# Lines come from different studies, so protocols differ. ± marks the error that the study gave.
# Cell line: MCF7
SMILES,read-out,technique,sample,time,notes,IC50
C[C@@H]1CC[C@@H]([C@](O)(CNCc2ccc(F)cc2)COCc2ccccc2)[C@H](OCc2ccccc2)C1,cell growth or viability,MTT,,72 h,,10.4 µM
CN1CCCC1CCO/N=C1/C=C2CCC3C(CC[C@]4(C)/C(=C/c5ccccn5)CCC34)[C@@]2(C)CC1 (stereo partly drawn),cell growth or viability,MTT,,72 h,,7 µM
c1ccc(-c2nc(-c3cccnc3)[nH]c2-c2ccccc2)cc1,cell growth or viability,SRB,,48 h,,> 100 µM
COc1cc(OC)c(C(C)=O)c(OC)c1,cell growth or viability,MTT,,48 h,,76.3 µM
CC1=C2[O][Ru-]([Cl])[O+]=C2C=CN1CCCCCCCCCCCCN1C=CC2=[O+][Ru-]([Cl])[O]C2=C1C.Cc1ccc(C(C)C)cc1.Cc1ccc(C(C)C)cc1,cell growth or viability,crystal violet,,96 h,,2.1 µM
CCCCCCOc1c(O)cc(C(=O)O[C@@H]2Cc3c(O)cc(O)cc3O[C@@H]2c2cc(O)c(O)c(O)c2)cc1O,cell growth or viability,CCK-8,,24 h,,50.5 µM
O=C(/C(Br)=N/Nc1ccccc1)c1ccccc1,cell growth,MTT,,,,11.2 to 19.5 µM
COc1c(O)c(Br)c2oc3c(Br)c(O)c(CCC(C)C)c(O)c3c(=O)c2c1CCC(C)C,cell growth or viability,,,48 h,,19.7 µM
Clc1cc(Br)c2c(c1)CCc1cccnc1C2=C1CCNCC1,cell growth or viability,SRB,,,,< 15 µM
CC1(C)CC(=O)C2=C(C1)OC(N)=C(C#N)C2c1ccccc1 (stereo not drawn),cell growth or viability,MTT,,24 h,,334 µM
[Cl][Au].[Se]=c1n(C23CC4CC(CC(C4)C2)C3)ccn1C12CC3CC(CC(C3)C1)C2,cell growth or viability,MTT,,72 h,,2.7 µM
Cc1ccc(NC(=O)N/N=C2\CC3(CCN(C)CC3)Oc3ccccc32)cc1,cell growth or viability,MTT,,48 h,,21.4 µM
C=CC12COC(=O)C(=C)C1C1OC(=O)C(C)C1C(OC(=O)C(=C)CO)C2 (stereo not drawn),cell growth or viability,MTT,,72 h,,4.9 µM
[NH2][Pt]1([NH2])([Cl])([O]C(=O)C(Cl)Cl)[O]C(=O)C2(CC(=O)C2)C(=O)[O]1,cell growth or viability,MTT,,,,27.1 µM
C[C@@H]1CC[C@@H]([C@](O)(CNCc2ccccc2F)COCc2ccccc2)[C@H](OCc2ccccc2)C1,cell growth or viability,MTT,,72 h,,1.8 µM
CCN1C(=O)CS/C1=N/N=C(\C)c1c(O)c2ccccc2oc1=O,cell growth,MTT,,48 h,,24.2 ± 3.7 µM
O=C(c1ccncc1)N1N=C2/C(=C/c3ccc4ccccc4c3)CCCC2C1c1ccc2ccccc2c1 (stereo not drawn),cell growth or viability,MTT,,,,0.0426 µM
Oc1ccc2c(c1)[O][Pt-2]1([Cl])[N+](=C2)c2ccccc2[NH+]1c1ccccc1 (stereo not drawn),cell growth or viability,MTT,,,,66.9 µM
COc1ccc2cc3[n+](cc2c1OCc1cn(Cc2ccc(OC(F)(F)F)cc2)nn1)CCc1cc2c(cc1-3)OCO2,cell growth or viability,MTT,,,,36.7 µM
CC(=O)[O][Ag]=[c]1n(C)ccn1CC(O)c1ccccc1 (stereo not drawn),cell viability,MTT,,72 h,,18.4 ± 0.6 µM
CCCCCCCCCCCCCCCC(=O)Oc1ccc(CO)cc1OC(=O)CCCCCCCCCCCCCCC,cell viability,MTT,,48 h,serum-free medium,6.3 ± 0.4 mg/L
CC1=NN(C2=NC(=O)CS2)C(c2ccccc2)C1 (stereo not drawn),cell growth or viability,LDH,,,,8.3 µM
O=C(NCCCCCCCCNc1n[n+]([O-])c2ccccc2[n+]1[O-])C(F)(F)F,cytotoxicity,MTT,10% FBS medium,6 h + 18 h,hypoxia 3% O2,32.8 ± 6.4 µM
CCC(C(=O)O)C1CCC(C)C(C(C)C(O)C(C)C(=O)C(CC)C2OC3(C=CC(NCc4cn(CCCO)nn4)C4(CCC(C)(C5CCC(O)(CC)C(C)O5)O4)O3)C(C)CC2C)O1 (stereo not drawn),cell growth or viability,resazurin,,72 h,,2.48 µM
NS(=O)(=O)c1ccc(/N=N/c2ccc(O)c(/C=N/c3cc(Cl)ccc3O)c2)cc1,cell growth or viability,MTT,,72 h,,5 µM
CC(=O)OC[C@H]1O[C@@H](n2nc(-c3cc4ccccc4[nH]3)n(-c3ccccc3)c2=S)[C@H](OC(C)=O)[C@@H](OC(C)=O)[C@@H]1OC(C)=O,cell growth or viability,MTT,,,,11.2 µM
O=C(CCc1nc2cc(Cl)ccc2[nH]c1=O)Nc1ccc(O)cc1,cell growth or viability,MTT,,,,3.95 µM
CSc1nc(Nc2cccc(/C(C)=N/NC(=O)c3ccc(O)cc3)c2)c(C#N)c(-c2ccccc2)n1,cell growth or viability,MTT,,48 h,,26.1 µM
CC(=O)[O-].O.O.O.O.[Mn+2].[O-]c1ccc(Br)cc1C=NCCN1CCOCC1,cell viability,MTT,,72 h,,26.1 mg/L
COc1cc2c(cc1-c1coc3c(CC=C(C)C)c(OC)c(OC)cc3c1=O)OCO2,cell growth or viability,MTT,,72 h,,19.6 µM
Oc1ccc(Br)cc1C=NNC(=S)Nc1ccccc1,cell growth or viability,MTT,,72 h,,0.41 µM
O=C(Cc1ccccc1)NC(=S)n1c(-c2ccccc2)nc2ccccc21,cell growth or viability,MTT,,48 h,,8.32 µM
C=C(CO)[C@@H]1CC[C@]2(C)CC[C@]3(C)[C@H](CC[C@@H]4[C@@]5(C)CCC(=O)C(C)(C)C5CC[C@]43C)C12 (stereo partly drawn),cell growth or viability,SRB,,,,12.2 µM
COc1ccc2cc3[n+](cc2c1OCc1cn(Cc2ccccc2Br)nn1)CCc1cc2c(cc1-3)OCO2,cell growth or viability,MTT,,,,25.5 µM
NS(=O)(=O)c1ccc(/N=N/c2ccc(O)c(/C=N/CCc3c[nH]c4ccccc34)c2)cc1,cell growth or viability,MTT,,48 h,,9.02 µM
C/C(=N\NC(=S)N(C)C)c1ccc(S(=O)(=O)N2CCC(C)CC2)cc1,cell growth or viability,MTT,,,,19.3 µM
COc1ccc(CS(=O)(=O)c2ccc3ccccc3c2)cc1NCC(=O)O,cell growth or viability,MTS,,48 h,,0.182 µM
O=C1/C(=C/c2ccc3c(c2)OCCO3)SC(=S)N1[C@@H]1O[C@H](CO)[C@@H](O)[C@H](O)[C@H]1O,cell growth or viability,MTT,,48 h,,7.17 µM
C=CC(=C)CC[C@]1(C)[C@H](C)CC[C@@]23C(=C[C@H](OC(=O)CCCCC)C[C@@H]12)[C@@H](OC(C)=O)O[C@H]3OC(C)=O,cell growth or viability,SRB,,,,0.69 µM
CCN(CC)c1ccc2c(c1)[O][Pd]([CH2]C#N)[N](C1CCCCC1)c1ncccc1N=C2,cell growth or viability,MTT,,48 h,,38.6 µM
CN(C)c1ccc(C=NNC(=O)CSc2nc(N)cc(N3C(=O)c4ccccc4C3=O)n2)cc1,cell growth,,,24 (unit not given),,26.5 ± 1.8 µM
Cc1c(C(=O)NNC(=S)Nc2ccc(Cl)cc2)nnn1Cc1nc2ccccc2[nH]1,,,,48 h,,6.81 ± 0.4 µM
N=C(N)NCCC[C@@H](N)C(=O)N[C@@H](CC(=O)N[C@H](Cc1ccccc1)C(=O)N[C@H](CC(=O)O)C(N)=O)c1ccc2ccccc2c1,cell growth or viability,ATP luminescence,,72 h,,> 100 µM
CC(=O)[O][Pt]([Cl])([Cl])[O]C(=O)CCCc1ccccc1.N.N,cytotoxicity,,,72 h,,3.43 ± 0.14 µM
CC(=O)N[C@@H](Cc1c[nH]c2ccccc12)C(=O)[O][Re-2]1(=[C]=O)(=[C]=O)(=[C]=O)[n+]2c(C)cc(-c3ccccc3)c3ccc4c(-c5ccccc5)cc(C)[n+]1c4c32,cell growth or viability,resazurin,,72 h,,2.98 µM
N=c1c2sc3sc4c(=N)n(-c5ccccc5)c(=S)[nH]c4c3c2[nH]c(=S)n1-c1ccccc1,cell growth or viability,MTT,,,,15.3 µM
COc1c(O)cc2oc3cc4c(c(O)c3c(=O)c2c1CC=C(C)C)CC(O)O4 (stereo not drawn),cell growth or viability,,,48 h,,19.8 µM
Fc1ccc(-c2noc(-c3cccs3)c2C(F)(F)F)cc1,cell growth or viability,MTT,,48 h,,18.7 µM
CCCn1c(-c2cccnc2)nc(-c2ccc(C)cc2)c1-c1ccc(C)cc1,cell growth or viability,SRB,,24 h,,> 100 µM
[CH3][Pd-2]([Cl])([N+](=Cc1ccc[nH]1)Cc1ccccc1)[N+](=Cc1ccc[nH]1)Cc1ccccc1,cell growth or viability,MTT,,24 h,,> 100 mg/L
O=C(NNc1nc(-c2ccccc2)cs1)c1cc2ccc(O)cc2oc1=O,cell growth or viability,SRB,,72 h,,10 µM
CC1=CC(C(F)(F)F)=[O+][Pt-2]([NH3+])([NH3+])[O]1.CC1=CC(C(F)(F)F)=[O+][Pt-2]([NH3+])([NH3+])[O]1.O=S(=O)([O-])[O-] (stereo not drawn),cell growth or viability,MTT,,,,15 µM
C=C(C)[C@@H](O)[C@H](O)C[C@H](C)[C@@H]1CC[C@]23C[C@]12CC[C@@H]1[C@@]2(C)CC[C@@H](O)C(C)(C)[C@@H]2C[C@@H](OC(C)=O)[C@]13C,cell growth or viability,MTT,,,,> 10 µM
O=C(NCCCCCNc1n[n+]([O-])c2ccccc2[n+]1[O-])C(F)(F)F,cytotoxicity,MTT,,24 h,normoxia,> 111 µM

# Some of these lines once more:
SMILES,read-out,technique,sample,time,notes,IC50
CC(=O)N[C@@H](Cc1c[nH]c2ccccc12)C(=O)[O][Re-2]1(=[C]=O)(=[C]=O)(=[C]=O)[n+]2c(C)cc(-c3ccccc3)c3ccc4c(-c5ccccc5)cc(C)[n+]1c4c32,cell growth or viability,resazurin,,72 h,,2.98 µM
N=c1c2sc3sc4c(=N)n(-c5ccccc5)c(=S)[nH]c4c3c2[nH]c(=S)n1-c1ccccc1,cell growth or viability,MTT,,,,15.3 µM
COc1c(O)cc2oc3cc4c(c(O)c3c(=O)c2c1CC=C(C)C)CC(O)O4 (stereo not drawn),cell growth or viability,,,48 h,,19.8 µM
